{"data": "Assay results from different studies", "note": "Parts stem from different laboratories: compare values within a part only."}
{"data": "Study 1", "target": "Sal-like protein 4, full length isoform B (SALL4, Homo sapiens, UniProt Q9UJQ4-2, residues 1-616)", "technique": "universal PBM", "form": "double-stranded DNA, one strand shown", "sample": "in vitro", "concentration": "not given", "setting": "8-mer, flanks averaged, mean of replicates", "direction": "higher = stronger binding", "Construct (chain)": "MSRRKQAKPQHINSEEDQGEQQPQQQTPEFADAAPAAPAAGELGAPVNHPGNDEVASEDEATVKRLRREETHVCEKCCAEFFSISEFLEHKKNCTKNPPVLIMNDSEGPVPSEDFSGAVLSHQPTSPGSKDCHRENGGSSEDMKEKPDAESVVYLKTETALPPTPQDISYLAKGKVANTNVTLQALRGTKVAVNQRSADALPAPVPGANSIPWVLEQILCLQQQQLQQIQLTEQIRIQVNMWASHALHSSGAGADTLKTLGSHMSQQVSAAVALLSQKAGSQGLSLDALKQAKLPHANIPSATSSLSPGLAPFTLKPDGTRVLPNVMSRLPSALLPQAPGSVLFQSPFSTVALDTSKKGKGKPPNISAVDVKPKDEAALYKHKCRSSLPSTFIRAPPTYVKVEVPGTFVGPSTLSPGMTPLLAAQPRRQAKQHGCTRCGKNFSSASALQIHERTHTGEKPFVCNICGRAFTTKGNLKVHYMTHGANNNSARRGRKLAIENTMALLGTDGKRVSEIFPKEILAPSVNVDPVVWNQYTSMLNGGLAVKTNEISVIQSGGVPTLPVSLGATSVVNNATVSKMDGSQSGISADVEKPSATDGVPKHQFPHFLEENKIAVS"}
{"Strand": "GAAGTGGA", "E-score": -0.0559}
{"Strand": "CTTCGACC", "E-score": -0.254}
{"Strand": "TAACGAGA", "E-score": 0.143}
{"Strand": "ATGCCCTA", "E-score": -0.0574}
{"Strand": "TAACCTCA", "E-score": 0.158}
{"Strand": "ACGGTTCA", "E-score": -0.182}
{"data": "Study 2", "target": "Histone acetyltransferase KAT6A, winged helix 2, GST fusion (KAT6A, Homo sapiens, UniProt Q92794, residues 85-181)", "technique": "protein binding microarray", "form": "double-stranded DNA, one strand shown", "sample": "in vitro", "concentration": "not given", "setting": "8-mer, flanks averaged, mean of 2 arrays, mostly near background", "relative to": "not given", "direction": "higher = stronger binding", "Target sequence (chain)": "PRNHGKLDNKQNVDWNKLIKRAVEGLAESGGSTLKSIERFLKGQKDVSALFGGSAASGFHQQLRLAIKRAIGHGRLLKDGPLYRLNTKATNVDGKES"}
{"Strand": "CTCCTCAA", "E-score": -0.041}
{"Strand": "ATGCCAAA", "E-score": -0.0621}
{"Strand": "GTGCAGCA", "E-score": -0.0393}
{"Strand": "AGTTTACC", "E-score": 0.0643}
{"Strand": "AGCTAGTC", "E-score": -0.109}
{"Strand": "CGGGTTTA", "E-score": 0.0571}
{"data": "Study 3", "target": "Interferon regulatory factor 3, full length, phosphomimetic (IRF3, Homo sapiens, UniProt Q14653, residues 1-427, S386D/S396D/S398D/S402D/T404D/S405D)", "technique": "protein-binding microarray", "form": "double-stranded DNA, one strand shown", "sample": "in vitro", "concentration": "2540 nM top", "setting": "60-bp whole probe", "added": "salmon DNA 0.4 mg/ml", "relative to": "random background probes", "direction": "higher = stronger binding", "chain of UniProt Q14653 (whole entry, unmodified, looked up)": "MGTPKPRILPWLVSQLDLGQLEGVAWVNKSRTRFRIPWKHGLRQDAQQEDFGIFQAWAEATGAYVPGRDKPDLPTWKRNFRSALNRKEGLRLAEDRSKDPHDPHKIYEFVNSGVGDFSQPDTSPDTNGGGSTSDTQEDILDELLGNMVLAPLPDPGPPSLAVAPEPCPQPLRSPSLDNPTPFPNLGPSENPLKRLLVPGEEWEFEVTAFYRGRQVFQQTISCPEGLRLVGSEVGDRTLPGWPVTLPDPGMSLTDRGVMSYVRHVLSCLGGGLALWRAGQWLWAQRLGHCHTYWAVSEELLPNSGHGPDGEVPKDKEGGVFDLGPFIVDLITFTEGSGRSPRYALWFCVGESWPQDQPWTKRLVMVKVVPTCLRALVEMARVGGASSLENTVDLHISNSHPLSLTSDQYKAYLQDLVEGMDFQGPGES"}
{"Strand": "GCCTAGCACTGTTTTTTGGTTTCTGGTTTGTGCTAGGTCTTGATTCGCTTGACGCTGCTG", "fitted relative affinity": "3.26 z-score"}
{"Strand": "GCCTAGCACGTCGGTATCGGGTATCGGGACGTGCTAGTCTTGATTCGCTTGACGCTGCTG", "fitted relative affinity": "3.24 z-score"}
{"Strand": "GCCTAGCACGACGATTTCGTGTTTCGAGACGTGCTAGTCTTGATTCGCTTGACGCTGCTG", "fitted relative affinity": "1.91 z-score"}
{"Strand": "GCCTAGCACGACGATTTCAGTTTCGATACGTGCTAGGTCTTGATTCGCTTGACGCTGCTG", "fitted relative affinity": "6.1 z-score"}
{"data": "Mixed results"}
{"Molecule": "PhoQ, residues 284 288 289 292 302 303 SLANIV", "target": "PhoP, residues 12 14 15 18 19 AGCRL (Escherichia coli, UniProt P23836)", "assay": "Sort-seq, measured: YFP reporter", "test system": "E. coli", "setting": "PhoQ-PhoP variant library, added: 10 µM Mg2+", "how to read": "relative to: high Mg2+ state, higher = stronger signaling", "measurement": "fold induction", "value": 7.5}
{"note": "Repeated from above (mixed results):"}
{"Molecule": "PhoQ, residues 284 288 289 292 302 303 SLANIV", "target": "PhoP, residues 12 14 15 18 19 AGCRL (Escherichia coli, UniProt P23836)", "assay": "Sort-seq, measured: YFP reporter", "test system": "E. coli", "setting": "PhoQ-PhoP variant library, added: 10 µM Mg2+", "how to read": "relative to: high Mg2+ state, higher = stronger signaling", "measurement": "fold induction", "value": 7.5}
